Assay results collected from several papers.
± marks the error that the study gave.
Cell line: NCI-H460

Structure (SMILES) = COc1ccc(C2=NN(C(=O)CCC(=O)O)C(c3cn(-c4ccccc4)nc3-c3ccc(C)cc3)C2)cc1 (centres unmarked); observed = cell growth or viability; technique = flow cytometry; time = 48 h; measurement = IC50; result = 56900 nM
Structure (SMILES) = O=C(O)Cc1ccccc1Nc1c(Cl)cccc1Cl.c1cnc2c(c1)ccc1cccnc12; observed = cell viability; technique = MTT; time = 48 h; measurement = IC50; result = 3520 ± 4 nM
Structure (SMILES) = C#C[C@@]1(O)[C@@H](CO)O[C@@H](n2cc(I)c3c(N)ncnc32)[C@@H]1O; observed = cell growth or viability; technique = SRB; time = 48 h; measurement = GI50; result = 98 nM
Structure (SMILES) = O=c1[nH]c2ccccc2nc1/C=C/c1ccccc1[N+](=O)[O-]; observed = cell growth or viability; technique = MTT; time = 72 h; measurement = IC50; result = > 50000 nM
Structure (SMILES) = C#C[C@@]1(O)[C@@H](CO)O[C@@H](n2cc(Cl)c3c(N)ncnc32)[C@@H]1O; observed = cell growth or viability; technique = SRB; time = 48 h; measurement = GI50; result = 10 to 46 nM
Structure (SMILES) = CCCCCC(=O)N[C@H](C(=O)NC(CSc1c(F)c(F)c(F)c(F)c1F)C(=O)N[C@@H](CC(C)C)C(=O)[C@@]1(C)CO1)C(C)C (stereo in doubt); observed = cell growth or viability; measurement = IC50; result = 1130 nM
Structure (SMILES) = Cn1c(=O)c(/C=C/c2ccc(F)cc2)nc2ccccc21; observed = cell growth or viability; technique = MTT; time = 72 h; measurement = IC50; result = 13800 nM
Structure (SMILES) = CC(C)C[C@H](NC(=O)[C@H](CCc1ccccc1)NC(=O)CN1CCOCC1)C(=O)N[C@@H](Cc1ccccc1)C(=O)N[C@@H](CC(C)C)C(=O)[C@@]1(C)CO1; observed = cell growth or viability; measurement = IC50; result = 56 nM
Structure (SMILES) = Cc1ccc(C2=NN(C(=O)CCC(=O)O)C(c3cn(-c4ccccc4)nc3-c3ccc(C)cc3)C2)cc1 (centres unmarked); observed = cell growth or viability; technique = flow cytometry; time = 48 h; measurement = IC50; result = 49900 nM
Structure (SMILES) = O=c1[nH]c2ccccc2nc1/C=C/c1cccs1; observed = cell growth or viability; technique = MTT; time = 72 h; measurement = IC50; result = > 50000 nM
Structure (SMILES) = CC(C)C[C@H](NC(=O)[C@@H]1CSCCOCCOCCC(=O)N[C@@H](C(C)C)C(=O)N1)C(=O)[C@@]1(C)CO1; observed = cell growth or viability; measurement = IC50; result = 430 nM

Repeated from above:
Structure (SMILES) = O=c1[nH]c2ccccc2nc1/C=C/c1ccccc1[N+](=O)[O-]; observed = cell growth or viability; technique = MTT; time = 72 h; measurement = IC50; result = > 50000 nM
